Earlier results that unrelated publications cite.
Each line is one published result; not all experiments were run side by side. ± marks the error that the study gave. Converted amounts (≈) assume the structure as drawn.
Chain of UniProt Q96SB4 (whole entry, looked up): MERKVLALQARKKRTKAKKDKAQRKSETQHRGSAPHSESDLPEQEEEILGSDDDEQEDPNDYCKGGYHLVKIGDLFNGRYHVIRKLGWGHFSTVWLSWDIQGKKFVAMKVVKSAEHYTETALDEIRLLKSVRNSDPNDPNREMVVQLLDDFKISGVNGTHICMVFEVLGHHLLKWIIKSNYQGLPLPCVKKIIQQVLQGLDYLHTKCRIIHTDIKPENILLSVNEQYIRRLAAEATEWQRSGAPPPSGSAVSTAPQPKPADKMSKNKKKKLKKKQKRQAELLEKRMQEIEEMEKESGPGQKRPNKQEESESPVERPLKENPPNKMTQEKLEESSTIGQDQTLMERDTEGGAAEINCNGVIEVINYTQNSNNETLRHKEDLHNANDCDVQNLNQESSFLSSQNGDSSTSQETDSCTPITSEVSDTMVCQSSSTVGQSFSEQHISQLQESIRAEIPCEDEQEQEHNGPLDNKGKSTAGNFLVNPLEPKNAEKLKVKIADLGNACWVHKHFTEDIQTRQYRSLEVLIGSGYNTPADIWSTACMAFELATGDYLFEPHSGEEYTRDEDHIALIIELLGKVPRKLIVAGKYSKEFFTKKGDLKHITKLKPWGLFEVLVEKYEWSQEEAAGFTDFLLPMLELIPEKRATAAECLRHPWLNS

For `C=CC(=O)NC1CCN(c2ncc3ncnc(Nc4ccc(Oc5ccc6c(c5)ncn6C)c(C)c4)c3n2)CC1`, “confirmed overall response rate” read 71% (patients, NSCLC, HER2-mutant, previously treated; 120 mg once daily).
For `COc1cccc2c1C(=O)c1c(O)c3c(c(O)c1C2=O)C[C@@](O)(C(=O)CO)C[C@@H]3O[C@H]1C[C@H](N)[C@H](O)[C@H](C)O1`, “median duration of response” read less than 2 months (human epithelioid sarcoma patients; dose not given).
`CC(C)n1c(Nc2cccnc2)nc2cnc(Nc3ccc(N4CCN(C)CC4)cc3)nc21` — result for “overall response rate”: roughly 43% (human relapsed or refractory AML; 160 mg/day and higher).
Under “odour detection threshold”, `CCc1ncc(C)nc1CC` is recorded as 0.031 µg/kg (human, water).
`COc1cc2c(Nc3ccc(Cl)c(Cl)c3F)ncnc2cc1OC[C@@H]1C[C@@H]2CN(C)C[C@@H]2C1` — result for “increase in median survival”: 20% (mouse, orthotopic GL261 glioma; dose not given).
`C=CC(=O)NC1CCN(c2ncc3ncnc(Nc4ccc(Oc5ccc6c(c5)ncn6C)c(C)c4)c3n2)CC1`: “objective response rate” 71% (HER2-mutant NSCLC patients, phase Ib; oral, 120 mg once daily, centrally confirmed).
For `C[N+]1(C)CCC(OC(=O)C(O)(c2ccccc2)C2CCCC2)C1` (stereo not shown), “placebo-corrected trough FEV1 change” read 130 mL (COPD patients; inhaled, 50 µg once daily, 24 h postdose, dosing day 7; relative to: baseline).
For `Nc1cc(C(F)(F)F)c(-c2nc(N3CCOCC3)nc(N3CCOCC3)n2)cn1`, the remaining activity was 78% (SRPK1 (Homo sapiens, UniProt Q96SB4); enzyme activity; 10 µM; relative to: untreated).
`COc1cnccn1` — result for “odour detection threshold”: 0.7 µg/kg (human, water).
The MIC of `CC1(C)S[C@@H]2[C@H](NC(=O)[C@H](N)c3ccccc3)C(=O)N2[C@H]1C(=O)O` is reported as greater than 16 µg/mL (Enterobacter cloacae; clinical isolate RKI-No_5/14).
For `CN1CC[C@H](c2c(O)cc(O)c3c(=O)cc(-c4ccccc4Cl)oc23)[C@H](O)C1`, “partial remission rate” read 25 to 40% (patients with CLL; dose not given).
`Cc1oncc1C(=O)Nc1ccc(C(F)(F)F)cc1` gave an AC50 of 10.1 µM (mitochondrial membrane potential disruption, Tox21 HTS).
`NC(=S)NN=Cc1ncccc1N` gave a progression-free survival of 92% (cervical cancer patients; dose not given, 3 years, randomized phase II, together with: IV cisplatin plus radiation).
Under “objective response rate”, `C=CC(=O)Nc1cc(Nc2nccc(-c3cn(C)c4ccccc34)n2)c(OC)cc1N(C)CCN(C)C` is recorded as 71% (patients with EGFR-mutant NSCLC; dose not given, second-line clinical trial).
Under “HIV RNA reduction”, `COC[C@@H](c1ccc(C(F)(F)F)cc1)N1CCN(C2(C)CCN(C(=O)c3c(C)ncnc3C)CC2)C[C@@H]1C` is recorded as 0.93 log10 copies/mL (treatment-naive HIV subjects; 25 mg once daily, day 14, monotherapy without ritonavir).
For `C=CCc1ccc(OC)c(OC)c1`, “odour detection threshold” read 820 µg/kg (human, water).
Under “objective response rate”, `Cc1cc(C)c(CNC(=O)c2cc(Cl)c3c(c2C)O[C@@](C)([C@H]2CC[C@H](N(C)C)CC2)O3)c(=O)[nH]1` is recorded as 48% (Japanese relapsed/refractory ATLL patients; dose not given).
The EC50 of `CC(C)(C)c1cc(C(C)(C)C)c(NC(=O)c2c[nH]c3ccccc3c2=O)cc1O` is reported as 0.048 µg/mL (≈ 0.122 µM) (sweat chloride reduction; human cystic fibrosis patients; clinical exposure-response).
With `CC(C)c1cc(Oc2c(Cl)cc(-n3nc(C#N)c(=O)[nH]c3=O)cc2Cl)n[nH]c1=O` the MASH resolution was roughly 30% (human, MASH patients; dose not given; relative to: patients).
For `CC(F)(F)c1cc(F)ccc1-c1sc2cc(O)ccc2c1Oc1ccc(/C=C/C(=O)O)cc1`, “duration of tumour stasis” read 48 days (MCF7, mouse, MCF7 orthotopic xenograft; 20 mg/kg once daily).
`COc1ccc(Cl)c(Nc2nc3ccccc3nc2NS(=O)(=O)c2cccc(NC(=O)C(C)(C)N)c2)c1` — result for “clinical benefit rate”: 13.4% (human endometrial cancer patients; dose not given, phase II trial, CR+PR+SD over 6 months).
`Cc1cc(-c2nccc3c2ccn3CC(=O)Nc2ccc(-c3cnccn3)cn2)ccn1`: “WNT pathway gene expression” “decreased” (mouse, bleomycin-induced pulmonary fibrosis, lung; oral, 25 mg/kg once daily, days 7-21).
The HBsAg reduction of `C=C1[C@H](CO)[C@@H](O)C[C@@H]1n1cnc2c(=O)[nH]c(N)nc21` is reported as 0.08 log10 IU/mL (chronic hepatitis B patients; dose not given, 12 months, together with: lamivudine; relative to: baseline).
`CC/C(=C(\c1ccccc1)c1ccc(OCCN(C)C)cc1)c1ccccc1` — result for “breast cancer risk reduction”: 43% (high-risk women; dose not given, prevention setting).
The progression-free survival of `Nc1cccc2c1C(=O)N(C1CCC(=O)NC1=O)C2=O` (stereo not shown) is reported as 2.5 months (relapsed refractory multiple myeloma patients; dose not given, independent adjudication).
`CCNCCc1ccc(CN(CC)c2cc(OC)ccc2[C@@H]2CCc3cc(O)ccc3C2)cc1`: “median progression-free survival” 2.17 months (local investigator assessed; human, ER-positive HER2-negative breast cancer; dose not given).
With `Nc1ccn([C@@H]2CS[C@H](CO)O2)c(=O)n1` the HBsAg reduction was 0.14 log10 IU/mL (chronic hepatitis B patients; dose not given, 48 months, together with: entecavir; relative to: baseline).
The inhibition of `COC(=O)C1=C(C)NC(C)=C(C(=O)OC)C1c1c(Cl)nc2sc(C)cn12` is reported as 19 ± 1.3% (calcium-induced contraction; guinea pig aortic strip; 50 µM, together with: K+ 80 mM depolarisation).
The MIC of `CNC(C)C1CCC(N)C(OC2C(N)CC(N)C(OC3OCC(C)(O)C(NC)C3O)C2O)O1` (stereo not shown) is reported as 8 µg/mL (≈ 16.8 µM) (Enterobacter cloacae; clinical isolate RKI-No_348/15).
`CC1(C)CCC(CN2CCN(c3ccc(C(=O)NS(=O)(=O)c4ccc(NCC5CCOCC5)c([N+](=O)[O-])c4)c(Oc4cnc5[nH]ccc5c4)c3)CC2)=C(c2ccc(Cl)cc2)C1`: “complete remission rate” 21% (human, AML; concentration not given, together with: low-dose cytarabine).
Under “placebo-corrected trough FEV1 change”, `CCc1cc2c(cc1CC)CC(NC[C@H](O)c1ccc(O)c3[nH]c(=O)ccc13)C2` is recorded as 160 mL (COPD patients; inhaled, 150 µg once daily, 24 h postdose, dosing day 182; relative to: baseline).
Under “time to nadir”, `Cc1c(C(=O)Nc2ccc(N3C[C@@H](C)O[C@@H](C)C3)nc2)cccc1-c1ccc(OC(F)(F)F)cc1` is recorded as roughly 20 h (measured: Gli1 mRNA, stromal; mouse; oral, 40 mg/kg, single dose).
`COc1cc2c(Oc3ccc4[nH]c(C)cc4c3F)ccnc2cc1OCC1(N)CC1` has a progression-free survival of 4.8 months (metastatic soft tissue sarcoma patients; dose not given, placebo-controlled, drug arm).
`COc1cc(NC(=O)CCN2CCC(OC(=O)Nc3ccccc3-c3ccccc3)CC2)c(Cl)cc1CNC[C@H](O)c1ccc(O)c2[nH]c(=O)ccc12`: “placebo-corrected trough FEV1 change” 146 mL (COPD patients; inhaled, 400 µg once daily, 24 h postdose, dosing day 1; relative to: baseline).
With `O=C(c1ccc(C#Cc2cccc(F)c2)nc1)N1CCC(O)CC1` the fEPSP slope was 103 ± 2% (hippocampal CA1 Schaffer collateral synapse; concentration not given; relative to: baseline).
For `C[N+](C)(C)c1ccc2c(c1)C#Cc1ccc([N+](C)(C)C)cc1C#C2.O=C([O-])C(F)(F)F.O=C([O-])C(F)(F)F`, “second-order rate constant” read 0.174 M⁻¹ s⁻¹ (SPAAC cycloaddition, substrate, UV spectroscopy; methanol; room temperature, mean of 2 runs, together with: benzyl azide 100 mM).
`CCC(C)c1nccnc1OC` (stereo not shown) — result for “odour detection threshold”: 0.003 µg/kg (human, water).
Under “patients with tumour shrinkage”, `CNS(=O)(=O)Nc1nccc(Cc2c(C)c3ccc(Oc4ncccn4)cc3oc2=O)c1F` is recorded as 42.2% (evaluable patients; all dose levels; relative to: patients).
`CNC[C@H](O)[C@@H](O)[C@H](O)[C@H](O)CO.O=C([O-])CN1CCN(CC(=O)[O-])CCN(CC(=O)O)CCN(CC(=O)[O-])CC1.[Gd+3]` has a relaxivity r1 of 4.5 mM⁻¹ s⁻¹ (human plasma; 310 K, 0.47 T).
`OC[C@H]1O[C@H](O[C@]2(CCl)O[C@H](CCl)[C@@H](O)[C@@H]2O)[C@H](O)[C@@H](O)[C@H]1Cl` has a sweetness potency of 600 × sucrose (sensory evaluation; human sensory panel, water; relative to: sucrose).
For `O=C(O)c1ccc2nc(-c3cc(Cl)cc(Cl)c3)oc2c1`, “stabilized transthyretin tetramers” read roughly 50% (human, V30M hereditary polyneuropathy patients; oral, 20 mg once daily).
For `Cc1ccc(Nc2nccc(N(C)c3ccc4c(C)n(C)nc4c3)n2)cc1S(N)(=O)=O`, “objective response rate” read 31% (Chinese patients, advanced soft tissue sarcoma; dose not given, retrospective study).
The inhibition of `COC(=O)C1=C(C)NC(C)=C(C(=O)OC)C1c1c(-c2ccc(OC)c(OC)c2)nc2sccn12` is reported as 15 ± 0.9% (calcium-induced contraction; guinea pig aortic strip; 50 µM, together with: K+ 80 mM depolarisation).

For quick reference, copied from above:
With `Nc1ccn([C@@H]2CS[C@H](CO)O2)c(=O)n1` the HBsAg reduction was 0.14 log10 IU/mL (chronic hepatitis B patients; dose not given, 48 months, together with: entecavir; relative to: baseline).
The inhibition of `COC(=O)C1=C(C)NC(C)=C(C(=O)OC)C1c1c(Cl)nc2sc(C)cn12` is reported as 19 ± 1.3% (calcium-induced contraction; guinea pig aortic strip; 50 µM, together with: K+ 80 mM depolarisation).
The MIC of `CNC(C)C1CCC(N)C(OC2C(N)CC(N)C(OC3OCC(C)(O)C(NC)C3O)C2O)O1` (stereo not shown) is reported as 8 µg/mL (≈ 16.8 µM) (Enterobacter cloacae; clinical isolate RKI-No_348/15).
`CC1(C)CCC(CN2CCN(c3ccc(C(=O)NS(=O)(=O)c4ccc(NCC5CCOCC5)c([N+](=O)[O-])c4)c(Oc4cnc5[nH]ccc5c4)c3)CC2)=C(c2ccc(Cl)cc2)C1`: “complete remission rate” 21% (human, AML; concentration not given, together with: low-dose cytarabine).
